Assay results collected from several papers.
Organism: Enterobacter cloacae

| SMILES | assay | test system | conditions | how to read | quantity | value |
| --- | --- | --- | --- | --- | --- | --- |
| CC(C)C[C@H](NC(=O)[C@H](CC(N)=O)NC(=O)[C@H](CCCNC(=N)N)NC(=O)[C@@H](CC(C)C)NC(=O)[C@H](Cc1ccccc1)NC(=O)[C@H](CC(=O)O)NC(=O)[C@H](CCCCN)NC(=O)[C@@H](CC(C)C)NC(=O)[C@H](CCCNC(=N)N)NC(=O)[C@H](CCC(N)=O)NC(=O)[C@@H](NC(=O)[C@@H](CC(C)C)NC(=O)[C@H](CCCNC(=N)N)NC(=O)[C@H](CCCCN)NC(=O)[C@H](Cc1ccccc1)NC(=O)CN)C(C)C)C(=O)N[C@H](C(N)=O)C(C)C | broth microdilution | B2366-12 |  |  | MIC | 25 µM |
| CC[P+](CC)(CC)[Au-][S][C@@H]1O[C@H](COC(C)=O)[C@@H](O[C@H]2O[C@H](COC(C)=O)[C@@H](OC(C)=O)[C@H](OC(C)=O)[C@H]2OC(C)=O)[C@H](OC(C)=O)[C@H]1OC(C)=O |  | NCTC 13405 | concentration not given | baseline: auranofin | fold activity enhancement | 2 to 4 |
| CCCS[C@H]1[C@H](O)[C@@H](N)[C@@H](O[C@H]2[C@H](O[C@@H]3O[C@H](CO)[C@@H](O[C@H]4O[C@@H](CN)[C@@H](O)[C@H](O)[C@H]4N)[C@H]3O)[C@@H](O)[C@H](N)C[C@@H]2N)O[C@@H]1CO |  | AG290 |  |  | MIC | 2 µg/mL |
| Cc1ncc([N+](=O)[O-])n1CCOCc1nnc(SCC(=O)c2ccc(O)cc2)o1 |  | DMSO | 60 µg/mL, 24 h, 37 °C |  | inhibition zone diameter | 10 to 15 mm |
| c1ccc(CN2CCOCCOCCN(CCCCCCCCCCCCCCN3CCOCCOCCN(CCCCCCCCCCCCCCN4CCOCCOCCN(Cc5ccccc5)CCOCCOCC4)CCOCCOCC3)CCOCCOCC2)cc1 |  | meropenem-resistant |  |  | MIC | 12 µM |
| Cc1ncc([N+](=O)[O-])n1CCOCc1nnc(SCC(=O)c2ccc(Cl)cc2)o1 |  | DMSO | 60 µg/mL, 24 h, 37 °C |  | inhibition zone diameter | ≥ 20 mm |
| CC(C)CS[C@H]1[C@H](O)[C@@H](N)[C@@H](O[C@H]2[C@H](O[C@@H]3O[C@H](CO)[C@@H](O[C@H]4O[C@@H](CN)[C@@H](O)[C@H](O)[C@H]4N)[C@H]3O)[C@@H](O)[C@H](N)C[C@@H]2N)O[C@@H]1CO |  | AG290 |  |  | MIC | 2 µg/mL |
| CC(C)C[C@H](NC(=O)[C@H](CC(N)=O)NC(=O)[C@H](CCCNC(=N)N)NC(=O)[C@@H](CC(C)C)NC(=O)[C@H](Cc1ccc(C(F)(F)F)cc1)NC(=O)[C@H](CC(=O)O)NC(=O)[C@H](CCCCN)NC(=O)[C@@H](CC(C)C)NC(=O)[C@H](CCCNC(=N)N)NC(=O)[C@H](CCC(N)=O)NC(=O)[C@@H](NC(=O)[C@@H](CC(C)C)NC(=O)[C@H](CCCNC(=N)N)NC(=O)[C@H](CCCCN)NC(=O)[C@H](Cc1ccc2ccccc2c1)NC(=O)CN)C(C)C)C(=O)N[C@H](C(N)=O)C(C)C | broth microdilution | B2366-12 |  |  | MIC | 6.2 to 12.5 µM |
| CN1/C(=C/C=C/c2cc(-c3ccccc3)cc(-c3ccccc3)[o+]2)C(C)(C)c2ccccc21 | microbial growth, broth dilution | ATCC13047 |  |  | MIC | 32 µg/mL |
| CC[P+](CC)(CC)[Au-][S+](C[C@H]1O[C@H](O[C@H]2O[C@H](COC(C)=O)[C@@H](OC(C)=O)[C@H](OC(C)=O)[C@H]2OC(C)=O)[C@H](OC(C)=O)[C@@H](OC(C)=O)[C@@H]1OC(C)=O)[Au-][P+](CC)(CC)CC.[Cl-] |  | NCTC 13405 | concentration not given | baseline: auranofin | fold activity enhancement | 8 |
| Cc1ncc([N+](=O)[O-])n1CCOCc1nnc(SCC(=O)c2ccc(Br)cc2)o1 |  | DMSO | 60 µg/mL, 24 h, 37 °C |  | inhibition zone diameter | ≥ 20 mm |
